Results collected from several papers.
A part holds a random share of what one study measured.
Sequence of UniProt P49336 (whole entry, looked up): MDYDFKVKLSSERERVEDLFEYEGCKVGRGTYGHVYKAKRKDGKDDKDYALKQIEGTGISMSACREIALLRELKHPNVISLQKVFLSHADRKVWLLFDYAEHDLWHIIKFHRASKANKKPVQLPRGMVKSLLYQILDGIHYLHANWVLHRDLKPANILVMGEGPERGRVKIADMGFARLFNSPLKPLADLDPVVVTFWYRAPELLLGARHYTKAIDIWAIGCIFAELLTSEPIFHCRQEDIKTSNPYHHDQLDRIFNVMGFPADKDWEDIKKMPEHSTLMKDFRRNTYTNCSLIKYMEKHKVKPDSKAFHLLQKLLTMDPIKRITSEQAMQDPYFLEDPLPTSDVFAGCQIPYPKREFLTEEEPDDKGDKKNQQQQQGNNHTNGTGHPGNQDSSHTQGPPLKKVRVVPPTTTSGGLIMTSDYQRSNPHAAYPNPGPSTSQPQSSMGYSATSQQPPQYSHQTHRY
Sequence of UniProt Q16816 (whole entry, looked up): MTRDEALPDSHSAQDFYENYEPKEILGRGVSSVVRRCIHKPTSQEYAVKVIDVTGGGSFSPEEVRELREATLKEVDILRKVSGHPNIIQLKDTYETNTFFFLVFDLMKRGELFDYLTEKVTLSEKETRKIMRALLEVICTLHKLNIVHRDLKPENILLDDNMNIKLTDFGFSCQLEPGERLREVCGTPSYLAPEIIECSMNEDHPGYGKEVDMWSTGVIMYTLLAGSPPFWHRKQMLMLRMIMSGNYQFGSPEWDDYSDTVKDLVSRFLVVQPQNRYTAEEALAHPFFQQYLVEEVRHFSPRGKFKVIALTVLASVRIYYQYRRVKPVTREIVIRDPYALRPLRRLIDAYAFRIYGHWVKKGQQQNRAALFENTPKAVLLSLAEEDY
Sequence of UniProt Q6ZN16 (whole entry, looked up): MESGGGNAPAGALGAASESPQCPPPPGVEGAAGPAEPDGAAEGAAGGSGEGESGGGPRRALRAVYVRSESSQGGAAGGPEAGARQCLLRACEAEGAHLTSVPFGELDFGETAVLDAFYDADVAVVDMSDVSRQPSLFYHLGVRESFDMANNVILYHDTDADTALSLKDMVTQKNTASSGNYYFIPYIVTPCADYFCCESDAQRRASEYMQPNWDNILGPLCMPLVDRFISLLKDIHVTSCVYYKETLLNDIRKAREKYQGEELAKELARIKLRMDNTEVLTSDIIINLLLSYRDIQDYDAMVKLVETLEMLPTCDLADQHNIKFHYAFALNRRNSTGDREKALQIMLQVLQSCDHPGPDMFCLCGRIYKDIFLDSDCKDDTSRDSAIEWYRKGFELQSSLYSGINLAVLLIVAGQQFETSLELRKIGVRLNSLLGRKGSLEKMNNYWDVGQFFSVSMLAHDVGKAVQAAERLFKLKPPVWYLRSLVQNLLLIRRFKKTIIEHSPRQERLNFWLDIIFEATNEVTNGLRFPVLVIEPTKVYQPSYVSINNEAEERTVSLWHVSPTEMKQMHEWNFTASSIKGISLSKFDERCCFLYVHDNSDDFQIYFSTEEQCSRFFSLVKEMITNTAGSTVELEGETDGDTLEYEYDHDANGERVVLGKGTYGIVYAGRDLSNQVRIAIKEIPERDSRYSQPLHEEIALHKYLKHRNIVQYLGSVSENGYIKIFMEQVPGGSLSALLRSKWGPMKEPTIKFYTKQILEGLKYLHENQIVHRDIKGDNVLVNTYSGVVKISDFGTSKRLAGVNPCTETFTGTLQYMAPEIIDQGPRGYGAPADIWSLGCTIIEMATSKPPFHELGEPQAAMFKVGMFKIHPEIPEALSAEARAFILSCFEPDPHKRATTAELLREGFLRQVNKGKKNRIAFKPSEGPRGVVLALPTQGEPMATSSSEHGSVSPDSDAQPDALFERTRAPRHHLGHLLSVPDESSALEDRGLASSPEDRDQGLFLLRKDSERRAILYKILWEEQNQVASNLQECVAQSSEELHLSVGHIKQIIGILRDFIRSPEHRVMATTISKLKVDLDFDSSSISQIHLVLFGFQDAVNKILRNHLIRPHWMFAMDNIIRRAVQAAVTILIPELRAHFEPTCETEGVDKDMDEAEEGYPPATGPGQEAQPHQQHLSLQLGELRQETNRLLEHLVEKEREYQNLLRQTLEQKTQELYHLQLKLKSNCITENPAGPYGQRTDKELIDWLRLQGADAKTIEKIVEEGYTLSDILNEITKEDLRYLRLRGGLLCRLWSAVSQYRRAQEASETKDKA

Series 1
Structure (SMILES): CCCCN(CCCC)C(=O)CN1C[C@H](c2cc(OC)c3c(c2)OCO3)[C@@H](C(=O)O)[C@@H]1CC(C)(C)CCC
Read-out: cell-free assay
Technique: competition with immobilised ligand
Concentration: 1 µM
target | remaining binding
MAP3K15 (Homo sapiens, UniProt Q6ZN16) | 100%
CDK8 (Homo sapiens, UniProt P49336) | 100%
PHKG1 (Homo sapiens, UniProt Q16816) | 100%

Series 2
Cell line: A-375
Concentration: 100 µM
Time: 36 h
Structure (SMILES) | viability
O=C(NC[C@H]1CN(c2ccc(N3CCOCC3=O)cc2)C(=O)O1)c1ccc(Cl)s1 | 93.7%
O=c1cc(-c2ccc(O)c(O)c2)oc2cc(O)cc(O)c12 | 24.7%
CCN(CC)CCCC(C)Nc1ccnc2cc(Cl)ccc12 (stereo not shown) | -2.56%

Series 3
Target: Prothrombin, mature alpha-thrombin (F2, Homo sapiens, UniProt P00734)
Technique: aptamer microarray, sandwich
Form: DNA with 2'F-ANA
Matrix: in vitro
Concentration: 200 nM
Setting: whole 15-mer aptamer, many near background
Added: Cy3 exosite-II aptamer, 400 nM
Direction: higher = stronger binding
Sequence: GGTTGGTGTGGTTGG
Modification | mean fluorescence intensity
2'F-ANA at 1 2 4 9 11 12 15 | 213 a.u.
2'F-ANA at 1 2 4 5 6 7 8 10 12 15 | 48.2 a.u.
2'F-ANA at 3 6 7 8 9 10 11 12 13 14 | 338 a.u.
2'F-ANA at 3 5 7 9 10 13 14 15 | 49.3 a.u.
2'F-ANA at 3 4 5 7 10 12 15 | 68.3 a.u.
2'F-ANA at 1 4 5 6 7 9 12 13 14 15 | 44.7 a.u.
2'F-ANA at 1 5 6 8 9 12 13 15 | 79.8 a.u.
2'F-ANA at 2 3 6 7 10 13 15 | 294 a.u.

Series 4
Host: mouse
Matrix: microsomes or S9
Concentration: 2 µM
Time: 0.5 h
Compound | remaining compound
COc1ccccc1/C=C/c1nc(S(=O)(=O)c2ccccc2)c(N2CCN(C)CC2)o1 | 2.21%
CN(CC(=O)Nc1nc2c(F)cc(F)cc2s1)S(C)(=O)=O | 37.7%
COc1cc(NC(=O)c2c(OC)cc(=O)n3c2CCCC3)cc(OC)c1OC | 94.2%

Series 5
Target: Activin receptor type-1-like (ACVRL1, Homo sapiens, UniProt P37023)
Sequence of UniProt P37023 (whole entry, looked up): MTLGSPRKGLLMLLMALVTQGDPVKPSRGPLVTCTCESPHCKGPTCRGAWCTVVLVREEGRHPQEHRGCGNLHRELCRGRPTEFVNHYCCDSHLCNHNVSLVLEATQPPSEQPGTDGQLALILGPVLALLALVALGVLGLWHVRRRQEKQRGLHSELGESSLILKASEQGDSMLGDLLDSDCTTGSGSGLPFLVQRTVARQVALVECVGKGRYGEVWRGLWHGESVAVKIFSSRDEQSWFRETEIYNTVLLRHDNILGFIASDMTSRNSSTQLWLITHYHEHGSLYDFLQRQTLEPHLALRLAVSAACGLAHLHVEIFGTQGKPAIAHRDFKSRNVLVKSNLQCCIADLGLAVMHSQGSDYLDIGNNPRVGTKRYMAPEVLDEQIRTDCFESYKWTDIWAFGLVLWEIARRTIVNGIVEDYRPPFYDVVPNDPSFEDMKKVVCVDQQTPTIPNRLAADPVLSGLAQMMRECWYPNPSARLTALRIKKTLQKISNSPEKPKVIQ
Read-out: enzyme activity
Action: inhibitor
Concentration: 0.5 µM
Relative to: control
SMILES | remaining activity [%]
O=C1NC(=O)C(c2cn(CCCn3ccnc3)c3ccccc23)=C1Nc1ccccc1 | 95.9
COc1ccc(CNC(=O)Nc2ncc([N+](=O)[O-])s2)cc1 | 106
Cc1cccc(-c2[nH]c(C(C)(C)C)nc2-c2ccc3c(c2)OCO3)n1 | 127
Cn1sc(=O)n(Cc2ccccc2)c1=O | 117
Cc1ccc(NC(=O)c2ccc(CN3CCN(C)CC3)cc2)cc1Nc1nc(-c2cccnc2)cs1 | 103
O=C1NC(=O)C(c2cn(CCCO)c3ncccc23)=C1c1cnccn1 | 105
O=S(=O)(c1cccc2cnccc12)N1CCCNCC1 | 111
COc1cc2ncnc(Nc3ccc(F)c(Cl)c3)c2cc1OCCCN1CCOCC1 | 96.9
CO[C@H]1C[C@@H]2CC[C@@H](C)[C@@](O)(O2)C(=O)C(=O)N2CCCC[C@H]2C(=O)O[C@H]([C@H](C)C[C@@H]2CC[C@@H](O)[C@H](OC)C2)CC(=O)[C@H](C)/C=C(\C)[C@@H](O)[C@@H](OC)C(=O)[C@H](C)C[C@H](C)/C=C/C=C/C=C/1C | 97.9
O=c1c2ccccc2[nH]c(=S)n1CCN1CCC(=C(c2ccc(F)cc2)c2ccc(F)cc2)CC1 | 101
Nc1ccc2ncnc(NCCc3ccc(Oc4ccccc4)cc3)c2c1 | 93.5
Cc1ccc(Nc2nccc(N(C)c3ccc4c(C)n(C)nc4c3)n2)cc1S(N)(=O)=O | 102
Cc1nc(-c2ccccc2)c(-c2ccncc2)o1 | 95.9
Nc1[nH]nc2nc3ccccc3nc12 | 105

Further values, each from its own experiment
Structure (SMILES) | tested on | test | test system | conditions | how to read | measurement | result
O=C(NCc1ccc(F)cc1)C1CCN(S(=O)(=O)c2cc(Cl)cc(Cl)c2)CC1 | mouse MPNST tumor cells | high-content immunofluorescence imaging, measured: nuclear SOX9 | – | 10 µM, 12 h, mean of 2 replicates | relative to: DMSO control, higher = more nuclear SOX9 | nuclear SOX9 intensity | 100 % of DMSO
CC(C)n1cnc(-c2ccc(F)cc2)c1-c1ncc(C(=O)Nc2ccc(N3CCN(C)CC3)cc2)[nH]1 | – | measured: liver function abnormal | patients with idiopathic pulmonary fibrosis | 60 mg once daily, trial | – | patients discontinuing for adverse event | 5.6%
C1N2CN3CN1CN(C2)C3 | mouse MPNST tumor cells | high-content immunofluorescence imaging, measured: nuclear SOX9 | – | 10 µM, 12 h, mean of 2 replicates | relative to: DMSO control, higher = more nuclear SOX9 | nuclear SOX9 intensity | 97.4 % of DMSO

For quick reference, copied from above (series 2):
Structure (SMILES) | viability
O=c1cc(-c2ccc(O)c(O)c2)oc2cc(O)cc(O)c12 | 24.7%
O=C(NC[C@H]1CN(c2ccc(N3CCOCC3=O)cc2)C(=O)O1)c1ccc(Cl)s1 | 93.7%
CCN(CC)CCCC(C)Nc1ccnc2cc(Cl)ccc12 (stereo not shown) | -2.56%
